Experimental data gathered from unrelated publications.
Parts stem from different laboratories: compare values within a part only.

Set 1
Target: RNA binding protein fox-1 homolog 2, RRM domain, GST-SBP tag (RBFOX2, Homo sapiens, UniProt O43251-10, residues 100-194)
Technique: RNA Bind-n-Seq
Form: RNA
Medium: in vitro
Tested at: 365 nM
Setting: natural RNA segment, single round, ends assumed
Relative to: no-protein control
Direction: higher = stronger binding
Residues (chain): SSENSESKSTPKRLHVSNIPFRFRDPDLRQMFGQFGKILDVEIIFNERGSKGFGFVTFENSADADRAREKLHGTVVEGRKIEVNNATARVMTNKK
Strand	RBNS enrichment (R)
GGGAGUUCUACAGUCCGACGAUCAGAAGAGGAUCUAUGUGCUGACCUCAGAAGAUGUAUAUGUUUACAUAAUUUAAUACAGAUUGAUGUUAAUACUUGUGUAUUUACAUAACCGUUUCCUUCUUGUCACUGAAUGGAAUUCUCGGGUGCCAA	0.396
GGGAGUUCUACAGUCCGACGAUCCCCCCCGGCAGCUUGACACUGAAUCCAGUGUCAAUUUGGGGAGAAAGCAGUUUUGUCUUGGAAUUUUGUAUGUUGUAGGAAUCCUUAGAGAGUGUGGUUCCUUCUGAUGGUGGAAUUCUCGGGUGCCAA	1.59
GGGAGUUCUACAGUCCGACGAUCUUUGUUUUCCCAGAGGCUGCCAUAUGGUCUUUGAGUACGGGGAUGUCCCAAACUGGCCCACCAAUGAGCAUGGCGGCUCCGGCCAGGAAUGCCAGAGUUAGCCUCCCAGGUGGAAUUCUCGGGUGCCAA	0.269
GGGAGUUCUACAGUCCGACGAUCGACAGCUUAAAGGGGUCUACACCCUCAACUUGCUUAAGUGCCCUCUGCUGAUAGCCAGGAAGGAGGGAGACCAGCCCUGCCCCUCAGGACCUGACCUGGCUCAUGAUGCCUGGAAUUCUCGGGUGCCAA	0.251
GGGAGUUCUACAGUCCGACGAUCUUCCUCCUGAGAACUCAUGUUGCUGCCCUGGUUCUUUCUACAGCUCUGGGAUUUAGGGGGAGCCAACUCUUGGCCUUCCUUUGCUCCCUGACUGUCCUUACGUCCUCUCUUGGAAUUCUCGGGUGCCAA	0.417
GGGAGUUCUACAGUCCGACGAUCGGAGUUUUUUUCCUCCACAUUUUGAGAUUUUGUGAUAAAUGGGAUGUGUGCCCACCCCUGACAUCUGUCCAUGUUGUCUAGACUCCACCUGUCCACGGUUCCUUUGUUCUUGGAAUUCUCGGGUGCCAA	0.504
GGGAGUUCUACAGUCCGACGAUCAACACUCGCUUCAGCUCAGACUCAGUGGACAUCAGAGUCUCUGUCUCCGUGUCUCAGUUAUGGUCUGCUCUCUCUAUGCCUGGAGCUACUGAUCCAAACACAAGACGGUCUGGAAUUCUCGGGUGCCAA	0.308
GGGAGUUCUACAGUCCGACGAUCUAUUCCUGAGCCCCGAUGGAGUCUUGUGGCCUGGAGUUGGGGUGUCUAGGACAACAGUGCCCGGCCUUGCACCUACUUGCCAGUUCUGCUUUGCCCAGCCUUGCUUUGGAUGGAAUUCUCGGGUGCCAA	0.646

Set 2
Target: Interferon regulatory factor 5, full length, phosphomimetic (IRF5, Homo sapiens, UniProt Q13568-2, residues 1-514, K96S/S451D/S453D/S456D/S462D)
Technique: protein-binding microarray
Form: double-stranded DNA, one strand shown
Medium: in vitro
Tested at: 250 nM
Setting: 60-bp whole probe
Together with: salmon DNA 0.4 mg/ml
Relative to: random background probes
Direction: higher = stronger binding
Shared flanks, not repeated: GCCTAGCAC … GTCTTGATTCGCTTGACGCTGCTG
Strand	log fluorescence [z-score]
TCATCTGTCCGTGCTCAGACTGTGCTA	0.255
TGAGAACTGGGGTTTCGATTAGTGCTA	5.43
GACGGTTTCGTTATCGGGACGTGCTAG	7.39
TCACTTATCCAATCAGAACTGTGCTAG	0.438
TTAGGTCACGGTCTCGGTTAGTGCTAG	0.117
TTTGATTTCAGTATCGATTAGTGCTAG	9.14
GACGGTTTCCTACTGCTCACGTGCTAG	0.307
TTTTTTTTCATCATTGCCTAGTGCTAG	2.09
GACGGTTCCCTTTTCCTGATGTGCTAG	0.211
TCACTTTTGAGAGATGGAACTGTGCTA	0.566
TTAAATATCGGGTTTCGATTAGTGCTA	8.16
GCTGACACTAACACAGTGGTGTGCTAG	-0.446
TTAGGTCTCTTTTTCCTTTAGTGCTAG	0.543
AACGATTCCAGTTTCGAGACGTGCTAG	6
TAAGTTTCACTTTCCAAAGCGTGCTAG	8.46
GACGAACTGATTTTCGAGACGTGCTAG	1.46

Set 3
Target: RING finger protein unkempt homolog, zinc fingers 1-6, GST-SBP tag (UNK, Homo sapiens, UniProt Q9C0B0, residues 30-357)
Chain of UniProt Q9C0B0 (30-357, looked up): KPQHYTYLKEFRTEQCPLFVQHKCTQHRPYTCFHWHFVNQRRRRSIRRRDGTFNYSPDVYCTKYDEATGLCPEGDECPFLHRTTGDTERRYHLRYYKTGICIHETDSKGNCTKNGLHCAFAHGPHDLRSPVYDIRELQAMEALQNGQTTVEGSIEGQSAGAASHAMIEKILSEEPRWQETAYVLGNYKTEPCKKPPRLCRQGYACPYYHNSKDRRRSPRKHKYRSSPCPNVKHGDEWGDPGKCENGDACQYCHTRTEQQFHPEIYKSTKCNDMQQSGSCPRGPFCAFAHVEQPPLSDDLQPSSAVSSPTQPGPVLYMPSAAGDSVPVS
Technique: RNA Bind-n-Seq
Form: RNA
Medium: in vitro
Tested at: not given
Setting: RNA with constant flanks, ends assumed
Relative to: input RNA pool
Direction: higher = stronger binding
Strand	bound/input enrichment [ratio]
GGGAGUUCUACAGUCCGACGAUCGAAGAGGUCCUCGAUCAUGGUGUUAGAAUUGACUGGAUAGUAACAGGUGGUCUGGUGGACCGCGGGGAGCAUGGCUCAGCACCAGAGCAGAGGCCCAGCCAGCCCUCUGCAGCCCAAACGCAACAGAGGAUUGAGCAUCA	0.271
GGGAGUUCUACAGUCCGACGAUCAAUGUAGAUUUUUGCUUUUCCUGUUUUUGUUUUGAAAAGUUACUCCAAUUGCUAAAUUGGCCGUUUUUUUGUCCUUAUAAAUAUAACAUUUAAAAAAGAUACACAAUUAUAUAAAAUGUUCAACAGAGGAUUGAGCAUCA	3.11
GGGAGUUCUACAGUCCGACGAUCAUGGAUUUCUGUAGCCAUACCAAAGCCAGGGUGUUUUCAUUCAUGCGGAUACUAGUAUUUACCGAUGUCUGACUACCUAACUUAAUUUUUGUUUUUGAACUUCUAAUUGGGGCCAGUGUACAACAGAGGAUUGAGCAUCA	0.624
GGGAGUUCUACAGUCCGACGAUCAAGGAUUGUAAAUCCUAUAGUGUGGGUGUAGCAUAUAAAACUUUAGGAAAAUUUGAUCAGUCCGGAAAGACAAAUACUAGUUGGUGCGUUCACGUCAACAGCUGGUUACAGAACACAUUUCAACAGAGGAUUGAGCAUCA	66.7
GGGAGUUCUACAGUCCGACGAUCUAUGCAUUUAUAUAACUGUUUUGUUAUUUGAAUCUUGGAAAACUAGUUUUAUUAUAUUCAGACCGCCUUGUUUUUUAAAAAGGCCUUUGCAUACACCUUUAUGAGAUAGUGUAAAAUUGACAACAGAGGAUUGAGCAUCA	58.8
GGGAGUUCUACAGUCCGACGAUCUUCGACUUUCUUUGCCAGUACCAUAAACCAGCAAGCAAGAUUCCUGCUUUCCUAAAUGCCGUGGAUAUUGCUGGCCUUGUAAAAGGAGCUCACAAUGGGCAGGGCUUGGGGAAUGCCUUUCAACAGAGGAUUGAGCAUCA	0.111

Set 4
Target: Ras GTPase-activating protein-binding protein 1, full length (G3BP1, Homo sapiens, UniProt Q13283)
Chain of UniProt Q13283 (whole entry, looked up): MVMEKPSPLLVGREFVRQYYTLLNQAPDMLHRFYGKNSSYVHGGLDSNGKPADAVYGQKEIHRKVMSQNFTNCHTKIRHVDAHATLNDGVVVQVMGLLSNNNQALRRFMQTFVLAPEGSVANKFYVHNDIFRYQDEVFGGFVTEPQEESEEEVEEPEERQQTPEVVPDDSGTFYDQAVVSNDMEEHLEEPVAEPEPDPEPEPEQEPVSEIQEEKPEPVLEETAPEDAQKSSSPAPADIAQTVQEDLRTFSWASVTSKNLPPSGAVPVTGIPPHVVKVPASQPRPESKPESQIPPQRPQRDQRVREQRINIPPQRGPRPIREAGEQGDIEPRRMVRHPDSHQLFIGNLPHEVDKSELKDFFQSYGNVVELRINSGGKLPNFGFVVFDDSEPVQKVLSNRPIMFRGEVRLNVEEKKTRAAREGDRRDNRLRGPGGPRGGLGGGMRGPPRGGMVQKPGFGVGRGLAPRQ
Technique: RNA Bind-n-Seq
Form: RNA
Medium: in vitro
Tested at: 200 nM
Setting: whole 134-nt RNA, ends assumed
Together with: 150 mM LiCl
Relative to: input library
Direction: higher = stronger binding
All molecules: 7-deaza-guanosine replaces G
Strand	log2 enrichment
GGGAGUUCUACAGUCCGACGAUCCCUCAAGUCCUGUGCUACACAUCGUAUGUACCGAAUCGGUUUGGUGGUUUGGAAAGUAUUAUGUUACGCCGUUCGGAUCUGCACUUCCAGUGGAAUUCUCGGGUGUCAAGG	-0.802
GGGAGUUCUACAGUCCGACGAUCAAGUCCUGUGCUACACAUCGUAUGUACCGAAUCGGAAAAAGGUUUGGAAAAAAAGGAAAGUAUUAUGUUACGCCGUUCGGAUCUGCACUUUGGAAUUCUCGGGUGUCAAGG	-1.92
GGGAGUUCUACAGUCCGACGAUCCAAGUCCUGUGCUACACAUCGUAUGUACCGAAUCGGUUUUUUUGGUUUUUGGAGGAAAGUAUUAUGUUACGCCGUUCGGAUCUGCACUUCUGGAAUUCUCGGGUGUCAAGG	-0.256
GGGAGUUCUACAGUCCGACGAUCACCAUGCAGGUGGGCAUCUUUGGGAAGUGGGGCAAGGGGGGGAUAGGGAGGGUGGUAACACUUUGGGAACAGGUGGUCCCAGGUCGUUUCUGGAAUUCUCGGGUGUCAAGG	0.369
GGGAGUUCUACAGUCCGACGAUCACCAUGCAGGUGGGCAACUUUGGGAAGUGGGGCAAGGGGGGGAUAGGGAGGGGGGUAACACUUUGGGAACAGGUGGUCCCAGGUCGUUUCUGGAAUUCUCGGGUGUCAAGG	0.277
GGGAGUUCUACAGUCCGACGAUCUUGCCACUCUAAAUUCAGAAGAGGAGAGCGACCCUCCAACCUACAAGGAUGCCUUCCCUCCACUUCCUGAGAAAGCUGCUUGCCUGGAAAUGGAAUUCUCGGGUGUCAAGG	-0.952
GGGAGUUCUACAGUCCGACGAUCCACAGCCAACACGCACCCACACAGACACAGAGGGAAGGGGUUGGGAUGGGGACAGGGUGCACAGCAGGGCGGGGUAGGACCCCAGCCCCUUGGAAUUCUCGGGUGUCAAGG	0.706
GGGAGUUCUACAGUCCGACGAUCUCAAGUCCUGUGCUACACAUCGUAUGUACCGAAUCGGAAAAAAAGGAAAGGAGGAAAGUAUUAUGUUACGCCGUUCGGAUCUGCACUUCCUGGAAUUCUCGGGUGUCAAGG	-0.65

Some of these lines once more (set 1):
Strand	RBNS enrichment (R)
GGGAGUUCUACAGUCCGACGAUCGGAGUUUUUUUCCUCCACAUUUUGAGAUUUUGUGAUAAAUGGGAUGUGUGCCCACCCCUGACAUCUGUCCAUGUUGUCUAGACUCCACCUGUCCACGGUUCCUUUGUUCUUGGAAUUCUCGGGUGCCAA	0.504
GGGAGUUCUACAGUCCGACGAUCAACACUCGCUUCAGCUCAGACUCAGUGGACAUCAGAGUCUCUGUCUCCGUGUCUCAGUUAUGGUCUGCUCUCUCUAUGCCUGGAGCUACUGAUCCAAACACAAGACGGUCUGGAAUUCUCGGGUGCCAA	0.308
